# Experimental data from different studies.
# Protocols differ between the studies behind these lines. “And” joins repeats or separate records; there may be more than shown. ± gives the spread as reported.
SMILES,test,test system,setting,scale,endpoint,value
CCN(CC)CCOc1ccc(-c2nnn(Cc3ccc(OC)cc3)c2N)cc1,,dog liver microsomes,"concentration not given, time not given",,remaining compound,36.1%
CCc1nn(C)c2nc(-c3ccc(C(=O)O)cc3)nc(NCc3ccccc3)c12,,NSG mice,"dose not given, day 1 of treatment",,body weight,23 g and 22.7 g and 21.7 g and 22.5 g
CC[C@H](C)[C@H](NC(=O)[C@H](CCCCN)NC(=O)CNC(=O)[C@H](CC(C)C)NC(=O)[C@H](Cc1ccccc1)NC(=O)[C@H](CCCCN)NC(=O)[C@H](CO)NC(=O)[C@H](Cc1ccccc1)NC(=O)[C@H](Cc1c[nH]c2ccccc12)NC(=O)[C@H](CCC(N)=O)NC(=O)[C@@H](NC(=O)[C@H](Cc1ccccc1)NC(=O)CCCCCNC(=O)CN1CCN(CC(=O)O)CCN(CC(=O)O)CCN(CC(=O)O)CC1)C(C)C)C(=O)N[C@@H](CCC(=O)O)C(=O)N1CCC[C@H]1C(=O)N[C@@H](CC(=O)O)C(=O)N[C@H](C(=O)N[C@@H](CO)C(=O)N[C@@H](CCC(N)=O)C(=O)N[C@H](C(=O)N[C@@H](CCC(N)=O)C(=O)N[C@@H](CC(=O)O)C(=O)N1CCC[C@H]1C(=O)N[C@@H](CC(N)=O)C(=O)N[C@@H](CC(=O)O)C(=O)N[C@@H](CCC(N)=O)C(=O)N[C@@H](Cc1ccc(O)cc1)C(=O)N[C@@H](CCC(=O)O)C(=O)N1CCC[C@H]1C(=O)N[C@@H](Cc1ccccc1)C(=O)O)C(C)C)C(C)C [copper-64 labelled],,"C57BL/6 mice, male, tumour-free, pancreas",2 h,,tissue uptake,1.77 ± 0.6 %ID/g
O=C(c1cc(Cc2n[nH]c(=O)c3ccccc23)ccc1F)N1CC(CNC2CC2)C1,,,,,logP,1.5
COc1cnc2cccc(N3CCc4c(cc(Cn5ccnc5)cc4-c4cn(C)nc4C(F)(F)F)C3=O)c2c1,,"BALB/c nude mice, MV4-11 xenograft","intraperitoneal, 100 mg/kg, day 28",,body weight,23.5 g and 23.6 g and 24.4 g and 23.2 g and 23.8 g
CC(C)C[C@H](NC(=O)[C@H](Cc1ccc(O)cc1)NC(=O)[C@H](C)NC(=O)[C@@H](NC(=O)[C@H](CC(C)C)NC(=O)[C@H](C)NC(=O)[C@H](C)NC(=O)[C@H](CCCCN)NC(=O)CNC(=O)[C@@H](NC(=O)[C@H](Cc1c[nH]cn1)NC(=O)[C@H](CCCCN)NC(=O)CNC(=O)[C@@H](NC(=O)[C@H](Cc1c[nH]cn1)NC(=O)[C@@H](NC(=O)[C@H](C)NC(=O)[C@H](CCCCN)NC(=O)[C@H](CCCCN)NC(=O)[C@H](Cc1ccccc1)NC(=O)[C@H](Cc1c[nH]c2ccccc12)NC(=O)[C@H](CCCCN)NC(=O)CNC(=O)[C@H](Cc1c[nH]c2ccccc12)NC(=O)[C@@H](N)CCCNC(=N)N)[C@@H](C)O)C(C)C)C(C)C)[C@@H](C)O)C(N)=O,,"zebrafish embryos 28 hpf, E3 medium",24 h,,chronic toxic concentration,5 µM
N=C(N)NCCC[C@@H](NC(=O)[C@H](N)Cc1c[nH]c2ccccc12)C(=O)N[C@H](CCCCN)C(=O)N[C@H](Cc1c[nH]c2ccccc12)C(=O)N[C@H](CCCNC(=N)N)C(=O)N[C@H](CCCCN)C(=O)N[C@H](Cc1c[nH]c2ccccc12)C(=O)N[C@H](CCCNC(=N)N)C(=O)N[C@H](CCCCN)C(=O)N[C@H](Cc1c[nH]c2ccccc12)C(=O)N[C@H](CCCNC(=N)N)C(=O)N[C@H](CCCCN)C(N)=O,,mouse,"intraperitoneal, 40 mg/kg single dose, day 4",,survival,75%
N#[11C]c1ccc(-c2csc(NN=C3CCCC3)n2)cc1,dynamic PET/CT,"C57BL/6 mouse, lung","intravenous, dose not given, end of PET scan",,radioactivity uptake,0.5 SUV
C=Cc1c(C)c2cc3nc(c(CC(=O)[O-])c4[n-]c(cc5nc(cc1[n-]2)C(C)=C5CC)c(C)c4C(=O)[O-])C(CCC(=O)[O-])C3C.[Cu+2].[Na+].[Na+].[Na+] (centres unmarked),,BALB/c mouse,"oral, acute single dose",,maximum tolerated dose,> 5000 mg/kg bw
CCCCCCCCCCCCCCCC(=O)N[C@@H](CCC(=O)NCCOCCOCCC(=O)NCCOCCOCCC(=O)NCCCC[C@H](NC(=O)[C@H](CC(=O)O)NC(=O)[C@H](CC(C)C)NC(=O)[C@H](Cc1ccc(O)cc1)NC(=O)[C@H](CCCCN)NC(=O)[C@H](CO)NC(=O)[C@H](Cc1ccc(O)cc1)NC(=O)[C@H](CC(=O)O)NC(=O)[C@H](CO)NC(=O)[C@@H](NC(=O)[C@H](Cc1ccccc1)NC(=O)[C@@H](NC(=O)CNC(=O)[C@H](CCC(N)=O)NC(=O)[C@@H](CO)NC(=O)[C@@H](N)Cc1c[nH]cn1)[C@@H](C)O)[C@@H](C)O)C(=O)N[C@@H](CCCNC(=N)N)C(=O)N[C@@H](CCCNC(=N)N)C(=O)N[C@@H](C)C(=O)N[C@@H](CCC(N)=O)C(=O)N[C@@H](CC(=O)O)C(=O)N[C@@H](Cc1ccccc1)C(=O)N[C@H](C(=O)N[C@@H](CCC(N)=O)C(=O)N[C@@H](Cc1c[nH]c2ccccc12)C(=O)N[C@@H](CC(C)C)C(=O)N[C@@H](CC(C)C)C(=O)N[C@@H](CC(N)=O)C(=O)N[C@H](C(=O)NCC(=O)NCC(=O)N1CCC[C@H]1C(=O)N[C@@H](CO)C(=O)N[C@@H](CO)C(=O)NCC(=O)N[C@@H](C)C(=O)N1CCC[C@H]1C(=O)N1CCC[C@H]1C(=O)N1CCC[C@H]1C(=O)N[C@@H](CO)C(N)=O)[C@@H](C)O)C(C)C)C(=O)O,,"male rhesus monkey, plasma","subcutaneous, 60 µg/kg, day 28, median",,Tmax,1 h
C[C@H](O)[C@@H](NC(=O)[C@H]1CCCN1C(=O)[C@@H](CCCCN)NC(=O)[C@@H](CO)NC(=O)[C@@H](Cc1ccc(O)cc1)NC(=O)[C@@H](CC(N)=O)NC(=O)CCOCCOCCOCCNC(=O)CN1CCN(CC(=O)O)CCN(CC(=O)O)CCN(CC(=O)O)CC1)C(=O)N[C@H](CC(=O)O)C(=O)N[C@H](CCCNC(=N)N)C(=O)N[C@H](CCC(N)=O)C(=O)N[C@H](Cc1ccc(O)cc1)C(=O)N[C@H](Cc1c[nH]cn1)C(=O)N[C@H](Cc1ccccc1)C(N)=O [copper-64 labelled],,"C57BL/6J mice, thymus","intravenous, 1.85 MBq, 0.6667 h, radiolabelled",,tissue uptake,0.78 ± 0.47 %ID/g
O=C1NC2(CC2)COc2ncc(F)cc2[C@H]2COCCN2c2ccn3ncc1c3n2,,"Sprague-Dawley rat, female, ovaries","oral, 10 mg/kg/day, 4 weeks",,organ weight,0.121 ± 0.014 g
CN1Cc2cc(Cl)ccc2-n2c(nnc2C2CCN(c3cccc(F)n3)CC2)C1,,"Sprague-Dawley rat male, brainstem","intravenous, 0.03 mg/kg",,AUC,4.41 ng·h/mL
CSCC[C@H](N)C(=O)N[C@@H](C)C(=O)N[C@@H](Cc1c[nH]c2ccccc12)C(=O)N[C@@H](Cc1c[nH]cn1)C(=O)N[C@@H](CC(=O)O)C(=O)N[C@@H](CC(=O)O)C(=O)N[C@@H](CCC(=O)O)C(=O)N[C@@H](CCC(=O)O)C(=O)N[C@@H](Cc1ccccc1)C(=O)N[C@@H](C)C(=O)N[C@@H](CCCNC(=N)N)C(=O)N[C@@H](CCCNC(=N)N)C(=O)N[C@@H](CCCNC(=N)N)C(=O)N[C@@H](CCCNC(=N)N)C(=O)NCCCCCC(=O)NCCCCC(NC(=O)CCCCCNC(=O)[C@H](CCCNC(=N)N)NC(=O)[C@H](CCCNC(=N)N)NC(=O)[C@H](CCCNC(=N)N)NC(=O)[C@H](CCCNC(=N)N)NC(=O)[C@H](C)NC(=O)[C@H](Cc1ccccc1)NC(=O)[C@H](CCC(=O)O)NC(=O)[C@H](CCC(=O)O)NC(=O)[C@H](CC(=O)O)NC(=O)[C@H](CC(=O)O)NC(=O)[C@H](Cc1c[nH]cn1)NC(=O)[C@H](Cc1c[nH]c2ccccc12)NC(=O)[C@H](C)NC(=O)[C@@H](N)CCSC)C(=O)NCCCCC(NC(=O)C(CCCCNC(=O)CCCCCNC(=O)[C@H](CCCNC(=N)N)NC(=O)[C@H](CCCNC(=N)N)NC(=O)[C@H](CCCNC(=N)N)NC(=O)[C@H](CCCNC(=N)N)NC(=O)[C@H](C)NC(=O)[C@H](Cc1ccccc1)NC(=O)[C@H](CCC(=O)O)NC(=O)[C@H](CCC(=O)O)NC(=O)[C@H](CC(=O)O)NC(=O)[C@H](CC(=O)O)NC(=O)[C@H](Cc1c[nH]cn1)NC(=O)[C@H](Cc1c[nH]c2ccccc12)NC(=O)[C@H](C)NC(=O)[C@@H](N)CCSC)NC(=O)CCCCCNC(=O)[C@H](CCCNC(=N)N)NC(=O)[C@H](CCCNC(=N)N)NC(=O)[C@H](CCCNC(=N)N)NC(=O)[C@H](CCCNC(=N)N)NC(=O)[C@H](C)NC(=O)[C@H](Cc1ccccc1)NC(=O)[C@H](CCC(=O)O)NC(=O)[C@H](CCC(=O)O)NC(=O)[C@H](CC(=O)O)NC(=O)[C@H](CC(=O)O)NC(=O)[C@H](Cc1c[nH]cn1)NC(=O)[C@H](Cc1c[nH]c2ccccc12)NC(=O)[C@H](C)NC(=O)[C@@H](N)CCSC)C(N)=O (some centres unmarked),,"C57BL/6 mouse female, spleen","dose not given, 6 h",baseline: total,mean tissue distribution,0.8%
CC(C)Oc1c(NC(=O)c2ccc(NC(=O)[C@H](CC(N)=O)NC(=O)c3ccc(/N=N/c4ccccc4)cc3)cc2)ccc(C(=O)N/N=C/c2ccc(C(=O)O)cc2)c1O,absorbance,DMSO,"40 °C, PSS to ground state relaxation",,thermal half-life,8.1 h
CC(=O)NCCCC[C@@H]1NC(=O)[C@H](Cc2c[nH]c3c(C)cccc23)NC(=O)[C@H]([C@@H](C)O)NC(=O)[C@H](CC(N)=O)NC(=O)[C@@H](NC(C)=O)C(C)(C)SSC(C)(C)[C@@H](C(=O)N[C@@H](Cc2ccc(OCCN)cc2)C(=O)N[C@@H](Cc2ccc3ccccc3c2)C(=O)NC2(C(=O)N[C@@H](CCC(=O)O)C(=O)N[C@@H](CC(N)=O)C(=O)N[C@@H](Cc3cccnc3)C(=O)N(C)CC(N)=O)CCOCC2)NC1=O,equilibrium dialysis,albumin plus glycoprotein,"1 µM, albumin 4%, glycoprotein 0.07%",,unbound fraction,62.9 ± 3.7%
COC(=O)[C@H]1[C@@H](c2ccc(Cl)c(Cl)c2)C[C@@H]2CC[C@H]1N2CCCCCc1ccc2cc3ccccc3cc2c1,fluorometric titration,,"1 µM, 10% DMSO",,pKa,6.5

# Some of these lines once more:
SMILES,test,test system,setting,scale,endpoint,value
CSCC[C@H](N)C(=O)N[C@@H](C)C(=O)N[C@@H](Cc1c[nH]c2ccccc12)C(=O)N[C@@H](Cc1c[nH]cn1)C(=O)N[C@@H](CC(=O)O)C(=O)N[C@@H](CC(=O)O)C(=O)N[C@@H](CCC(=O)O)C(=O)N[C@@H](CCC(=O)O)C(=O)N[C@@H](Cc1ccccc1)C(=O)N[C@@H](C)C(=O)N[C@@H](CCCNC(=N)N)C(=O)N[C@@H](CCCNC(=N)N)C(=O)N[C@@H](CCCNC(=N)N)C(=O)N[C@@H](CCCNC(=N)N)C(=O)NCCCCCC(=O)NCCCCC(NC(=O)CCCCCNC(=O)[C@H](CCCNC(=N)N)NC(=O)[C@H](CCCNC(=N)N)NC(=O)[C@H](CCCNC(=N)N)NC(=O)[C@H](CCCNC(=N)N)NC(=O)[C@H](C)NC(=O)[C@H](Cc1ccccc1)NC(=O)[C@H](CCC(=O)O)NC(=O)[C@H](CCC(=O)O)NC(=O)[C@H](CC(=O)O)NC(=O)[C@H](CC(=O)O)NC(=O)[C@H](Cc1c[nH]cn1)NC(=O)[C@H](Cc1c[nH]c2ccccc12)NC(=O)[C@H](C)NC(=O)[C@@H](N)CCSC)C(=O)NCCCCC(NC(=O)C(CCCCNC(=O)CCCCCNC(=O)[C@H](CCCNC(=N)N)NC(=O)[C@H](CCCNC(=N)N)NC(=O)[C@H](CCCNC(=N)N)NC(=O)[C@H](CCCNC(=N)N)NC(=O)[C@H](C)NC(=O)[C@H](Cc1ccccc1)NC(=O)[C@H](CCC(=O)O)NC(=O)[C@H](CCC(=O)O)NC(=O)[C@H](CC(=O)O)NC(=O)[C@H](CC(=O)O)NC(=O)[C@H](Cc1c[nH]cn1)NC(=O)[C@H](Cc1c[nH]c2ccccc12)NC(=O)[C@H](C)NC(=O)[C@@H](N)CCSC)NC(=O)CCCCCNC(=O)[C@H](CCCNC(=N)N)NC(=O)[C@H](CCCNC(=N)N)NC(=O)[C@H](CCCNC(=N)N)NC(=O)[C@H](CCCNC(=N)N)NC(=O)[C@H](C)NC(=O)[C@H](Cc1ccccc1)NC(=O)[C@H](CCC(=O)O)NC(=O)[C@H](CCC(=O)O)NC(=O)[C@H](CC(=O)O)NC(=O)[C@H](CC(=O)O)NC(=O)[C@H](Cc1c[nH]cn1)NC(=O)[C@H](Cc1c[nH]c2ccccc12)NC(=O)[C@H](C)NC(=O)[C@@H](N)CCSC)C(N)=O (some centres unmarked),,"C57BL/6 mouse female, spleen","dose not given, 6 h",baseline: total,mean tissue distribution,0.8%
COC(=O)[C@H]1[C@@H](c2ccc(Cl)c(Cl)c2)C[C@@H]2CC[C@H]1N2CCCCCc1ccc2cc3ccccc3cc2c1,fluorometric titration,,"1 µM, 10% DMSO",,pKa,6.5
CC(=O)NCCCC[C@@H]1NC(=O)[C@H](Cc2c[nH]c3c(C)cccc23)NC(=O)[C@H]([C@@H](C)O)NC(=O)[C@H](CC(N)=O)NC(=O)[C@@H](NC(C)=O)C(C)(C)SSC(C)(C)[C@@H](C(=O)N[C@@H](Cc2ccc(OCCN)cc2)C(=O)N[C@@H](Cc2ccc3ccccc3c2)C(=O)NC2(C(=O)N[C@@H](CCC(=O)O)C(=O)N[C@@H](CC(N)=O)C(=O)N[C@@H](Cc3cccnc3)C(=O)N(C)CC(N)=O)CCOCC2)NC1=O,equilibrium dialysis,albumin plus glycoprotein,"1 µM, albumin 4%, glycoprotein 0.07%",,unbound fraction,62.9 ± 3.7%
